Results collected from several papers.
Every numbered part comes from another study and shows a few of its results, in no order. Substitutions count along the parent as printed.

Block 1 — target: CCND3, cyclin fold, Cln2 fusion (human); technique: yeast growth competition, sequencing; medium: yeast; notes: weak parent motif; reference: not given; reading: higher = stronger binding
Starting sequence: CDC25A docking peptide (human); PPHRRRLLFACSP; partner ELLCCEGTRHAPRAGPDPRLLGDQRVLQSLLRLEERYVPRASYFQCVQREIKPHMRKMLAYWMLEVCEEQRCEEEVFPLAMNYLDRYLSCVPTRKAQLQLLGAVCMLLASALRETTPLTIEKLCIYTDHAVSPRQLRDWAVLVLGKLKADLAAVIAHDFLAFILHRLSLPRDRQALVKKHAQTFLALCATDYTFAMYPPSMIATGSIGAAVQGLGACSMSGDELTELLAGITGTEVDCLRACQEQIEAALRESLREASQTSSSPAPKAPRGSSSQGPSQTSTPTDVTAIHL
`R4L`: “normalised enrichment score” 0.192.
`L7N` — result for “normalised enrichment score”: 0.149.
`H3N` — result for “normalised enrichment score”: 0.11.
`P13I`: “normalised enrichment score” 0.0913.
For `P13Y`, “normalised enrichment score” read 0.177.
`H3W`: “normalised enrichment score” 0.145.
For `A10V`, “normalised enrichment score” read 0.102.
`P2H`: “normalised enrichment score” 0.211.
`R4Y`: “normalised enrichment score” 0.0653.
For `A10I`, “normalised enrichment score” read 0.0927.
`F9D` — result for “normalised enrichment score”: 0.0756.
For `P1N`, “normalised enrichment score” read 0.143.
`R4N` — result for “normalised enrichment score”: 0.214.
`F9S` — result for “normalised enrichment score”: 0.2.
For `H3K`, “normalised enrichment score” read 0.102.
`L8K`: “normalised enrichment score” 0.201.
`R6E` — result for “normalised enrichment score”: 0.0981.

Block 2 — technique: RNA Bind-n-Seq; molecule type: RNA; medium: in vitro; tested at: 365 nM; reference: no-protein control; reading: higher = stronger binding
Target: RNA binding protein fox-1 homolog 2, RRM domain, GST-SBP tag (RBFOX2, Homo sapiens, UniProt O43251-10, residues 100-194)
Notes: natural RNA segment, single round, ends assumed
Residues (chain): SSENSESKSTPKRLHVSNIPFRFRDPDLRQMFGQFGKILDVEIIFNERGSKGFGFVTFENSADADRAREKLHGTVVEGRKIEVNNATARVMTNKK
Under “RBNS enrichment (R)”, `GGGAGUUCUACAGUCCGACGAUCCAGCAACCCUGUUCACGCUCCACCUGUCUGGUCCAUAGCUCCCUGGAGGCUGGGCCAGGAGGCAGCCUCCGAACCAUGCCCCAUAUAACGCUUGGGUGCGUGGGAGGGCGUGGAAUUCUCGGGUGCCAA` is recorded as 0.298.
`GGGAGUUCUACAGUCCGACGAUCUGCAAAUAGAUGGAAUUACAGCAAAAUGUGCUCAAUGUAUUUGCCUGCUUACAACACUGGGAGAUGUGUUUGCCAGUAAGUUGCUCAUCACAAGAGCACCAGACUUGGGGUGGAAUUCUCGGGUGCCAA` — result for “RBNS enrichment (R)”: 0.615.
Under “RBNS enrichment (R)”, `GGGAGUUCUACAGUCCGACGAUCACUGGGAAAAUACAAAAGCUCUGGGCUAAUCUAUAAAAACUUACCCUGAAAUAUUAAGGGCAGUUUGCUUCUAGUUUGGGGAUUGCGCUAGCCCAAUGAAGGUGAUGAAGUGGAAUUCUCGGGUGCCAA` is recorded as 0.43.
Under “RBNS enrichment (R)”, `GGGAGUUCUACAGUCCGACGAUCCUGGUUUGGAGCUAGGCAGGCUGGCCAUGGGACAGAAAGGGCAGAAAAAAGAUGGAUUUCUGCUGUCUUUUGGCCCCUAGUUCCUUGGAAGGGCAAAGGCUAUGAGGUAGUGGAAUUCUCGGGUGCCAA` is recorded as 0.682.
For `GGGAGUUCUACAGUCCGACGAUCUCAGAUUUCCAAAAUUUCACUCAUACAAGGGAAGAGACUCCAUUUAGCUUAACGGUAGUCUUUAGAUCAUAAGAAAUAUAUAAAUUAGUAUGCACCUUAUCUGCCUGUUGUGGAAUUCUCGGGUGCCAA`, “RBNS enrichment (R)” read 0.964.
Under “RBNS enrichment (R)”, `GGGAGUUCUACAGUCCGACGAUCGCUUGAUAAUUUAUCUUAAAACACAGCAGCAUUGAAAUUUAGGAAAAGAAUAUUAAAUGCCUUUGGAAACAUGAAACAAAGUUAGGAGCCAGUAAGAAAGUGACAGAAGCUGGAAUUCUCGGGUGCCAA` is recorded as 0.643.
For `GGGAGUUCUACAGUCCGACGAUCUGCCAGCUGGCUGAUCUAAGCUCCUGAGGAAUGUCUCCUCUCAAAGGAAUUUUUCCCUCCAAAGGCCCCCUGAAGUCCUAGUUGGCAUUGGCCUGGCACAUGCUUUAUGUUGGAAUUCUCGGGUGCCAA`, “RBNS enrichment (R)” read 0.219.
Under “RBNS enrichment (R)”, `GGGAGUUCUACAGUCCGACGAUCCACUUCUUGAAGAAGUGCAGUUGUAAAUAAGCCAUGUAAAAUGCCUUUUUAAAGUUUAAUUUUAUAGCUGGCUCCACAUCAAAGUGAGGGCCUCAUAUGUUAGAUCACCUUGGAAUUCUCGGGUGCCAA` is recorded as 0.246.

Block 3 — technique: RNA Bind-n-Seq; molecule type: RNA; medium: in vitro; tested at: not given; reference: input RNA pool; reading: higher = stronger binding
Target: RING finger protein unkempt homolog, zinc fingers 1-6, GST-SBP tag (UNK, Homo sapiens, UniProt Q9C0B0, residues 30-357)
Notes: RNA with constant flanks, human and mouse sites, ends assumed
Construct (chain): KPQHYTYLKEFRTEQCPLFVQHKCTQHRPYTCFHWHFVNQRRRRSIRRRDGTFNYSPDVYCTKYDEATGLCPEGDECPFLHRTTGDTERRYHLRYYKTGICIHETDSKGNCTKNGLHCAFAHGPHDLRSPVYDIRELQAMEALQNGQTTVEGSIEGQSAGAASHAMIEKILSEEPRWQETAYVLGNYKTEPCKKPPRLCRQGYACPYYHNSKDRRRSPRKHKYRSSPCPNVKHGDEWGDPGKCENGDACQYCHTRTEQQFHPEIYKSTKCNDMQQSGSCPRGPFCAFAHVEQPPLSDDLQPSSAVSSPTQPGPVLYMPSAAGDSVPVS
The bound/input enrichment of `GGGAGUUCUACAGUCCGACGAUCCAAGACAAGUUUCAGAUCAUGUCAGACCAGAUCAUCGGAAGGAUAGAUGACAUGAGCAGUCGGAUUGACGACCUGGAGAAGAAUAUCGCUGACCUCAUGACCCAGGCUGGAGUAGAAGAACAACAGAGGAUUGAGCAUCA` is reported as 0.541 ratio.
For `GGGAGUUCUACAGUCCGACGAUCCAGCGCAGCAGCAGCCAGGAGAAGCCUACUCAGCUAUGCCUCGGGCUCAGCAGUCUGCUUCUUAUCAGCCCAUGCCAGCUGACCCUUUUGCUAUGGUCUCUAGAGCUCAGCAGAUGGUUGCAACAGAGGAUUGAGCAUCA`, the bound/input enrichment was 0.0731 ratio.
With `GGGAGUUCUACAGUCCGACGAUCCUUUUUUACACCAUCUUCUGUUAUUCAUUGCUUUUGAAGAGAAGCAUAGAAGAGACUUUUUAUUUAUUCUAGAAUUGCAGAAAUGACUACACUGUGCUAUACCAGAGAAUUCCAGUAGAACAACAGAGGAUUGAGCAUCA` the bound/input enrichment was 0.603 ratio.
For `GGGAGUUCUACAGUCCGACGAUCCUGCUGUUCUUUACUUUGGGAUUGCUUAUACAUUUUGUGUUCUUCGCCUCCAUCUUUGACAUUUAUUUUACAUCUCCUUUGGUUCAUGGAAUGACUCCUCAGUUUACACCAUUGCCUCCUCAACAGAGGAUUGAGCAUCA`, the bound/input enrichment was 0.474 ratio.
`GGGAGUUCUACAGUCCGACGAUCGAGCAGGGUGACAUGGCUGGCAAUUCUGCUUUAUAAAAUCGUGUCUCUAAAACUGUGUUCAUGUGUCUAGGAAGUAUUUAAUAAACUUGUGUAGAAACUUUUUGUGGUUGGGCCCUGGGACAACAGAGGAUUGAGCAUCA` gave a bound/input enrichment of 2.2 ratio.
The bound/input enrichment of `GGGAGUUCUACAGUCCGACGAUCCCGCCCGGGUCGUGGAGCCAGGAGCGACGUCACCGCCAUGGCGGGCAUCAAAGCUUUAAUUAGUUUGUCCUUUGGAGGAGCGAUCGGGCUGAUGUUCCUGAUGCUUGGAUGUGCCCUUCCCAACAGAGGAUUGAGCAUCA` is reported as 0.133 ratio.
The bound/input enrichment of `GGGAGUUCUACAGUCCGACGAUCCAUUGUCCAGCAUCAGGUAUACGAGGGACAGUGUAUCCAGUUGUUUAUGUUGAUGACAGUGCAAUUUUGGAUUGCCAGUUCAGUGAGUUUUAUCAUACGCCUCCACCUGGUUUUGAAAAACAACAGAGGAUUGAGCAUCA` is reported as 0.0869 ratio.
The bound/input enrichment of `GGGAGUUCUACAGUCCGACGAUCAAGCAACUUAUGGAAACAACUACAGAAUUUACAAAAAAGCUUCGGUGUUUACUUGCCUGGCAAUAGCAUUGGGAUUUUAUAGAUUCUGGAAGUAGUAUUAAUGCUCAUCCUGCUGUGGCUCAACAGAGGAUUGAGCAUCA` is reported as 1.5 ratio.

Block 4 — technique: protein binding microarray; molecule type: double-stranded DNA, one strand shown; medium: in vitro; tested at: not given; reference: not given; reading: higher = stronger binding
Target: Histone acetyltransferase KAT6A, winged helix 1, GST fusion (KAT6A, Homo sapiens, UniProt Q92794, residues 1-85)
Notes: 8-mer, flanks averaged, mean of 2 arrays, mostly near background
Residues (chain): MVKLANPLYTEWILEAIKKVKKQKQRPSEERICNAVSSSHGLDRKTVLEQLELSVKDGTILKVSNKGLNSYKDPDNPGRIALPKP
`CTACGCCA` has an E-score of 0.0175.
`ATAGACCC` gave an E-score of 0.0812.
For `AGCGTCAG`, the E-score was -0.129.
With `CCTGAAGA` the E-score was -0.0811.
For `CACGACGG`, the E-score was 0.269.
`CAAAATCG` gave an E-score of -0.0112.
With `TGCCAACA` the E-score was -0.273.
With `AGAGCTGC` the E-score was 0.0486.
With `GTGGAGAA` the E-score was -0.195.
The E-score of `CGCACACG` is reported as 0.305.
For `CGAGAACC`, the E-score was -0.0931.
`CAGCCCCC` gave an E-score of 0.0136.
With `GCCAGTAA` the E-score was -0.0797.
For `ATGCCGAA`, the E-score was 0.17.
`CACTGTGA` has an E-score of -0.109.
With `TGCTAAAA` the E-score was -0.142.
The E-score of `CACAGTTC` is reported as -0.036.

Mixed results
With `PhoQ, residues 284 288 289 292 302 303 SSTLLI` the fold induction was 14.4 (PhoP, residues 12 14 15 18 19 NQFFI (Escherichia coli, UniProt P23836); Sort-seq, item: YFP reporter; E. coli; PhoQ-PhoP variant library, together with: 10 µM Mg2+; reference: high Mg2+ state, higher = stronger signaling).

Excerpt of the above (block 3):
The bound/input enrichment of `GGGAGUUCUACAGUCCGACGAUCCAAGACAAGUUUCAGAUCAUGUCAGACCAGAUCAUCGGAAGGAUAGAUGACAUGAGCAGUCGGAUUGACGACCUGGAGAAGAAUAUCGCUGACCUCAUGACCCAGGCUGGAGUAGAAGAACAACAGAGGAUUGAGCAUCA` is reported as 0.541 ratio.
For `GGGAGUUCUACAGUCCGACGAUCCUGCUGUUCUUUACUUUGGGAUUGCUUAUACAUUUUGUGUUCUUCGCCUCCAUCUUUGACAUUUAUUUUACAUCUCCUUUGGUUCAUGGAAUGACUCCUCAGUUUACACCAUUGCCUCCUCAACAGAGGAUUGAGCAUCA`, the bound/input enrichment was 0.474 ratio.
With `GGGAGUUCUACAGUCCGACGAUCCUUUUUUACACCAUCUUCUGUUAUUCAUUGCUUUUGAAGAGAAGCAUAGAAGAGACUUUUUAUUUAUUCUAGAAUUGCAGAAAUGACUACACUGUGCUAUACCAGAGAAUUCCAGUAGAACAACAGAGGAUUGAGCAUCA` the bound/input enrichment was 0.603 ratio.
`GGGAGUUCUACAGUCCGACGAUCGAGCAGGGUGACAUGGCUGGCAAUUCUGCUUUAUAAAAUCGUGUCUCUAAAACUGUGUUCAUGUGUCUAGGAAGUAUUUAAUAAACUUGUGUAGAAACUUUUUGUGGUUGGGCCCUGGGACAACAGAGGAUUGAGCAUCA` gave a bound/input enrichment of 2.2 ratio.
The bound/input enrichment of `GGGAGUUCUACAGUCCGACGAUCCAUUGUCCAGCAUCAGGUAUACGAGGGACAGUGUAUCCAGUUGUUUAUGUUGAUGACAGUGCAAUUUUGGAUUGCCAGUUCAGUGAGUUUUAUCAUACGCCUCCACCUGGUUUUGAAAAACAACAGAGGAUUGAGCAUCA` is reported as 0.0869 ratio.
The bound/input enrichment of `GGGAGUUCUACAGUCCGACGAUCCCGCCCGGGUCGUGGAGCCAGGAGCGACGUCACCGCCAUGGCGGGCAUCAAAGCUUUAAUUAGUUUGUCCUUUGGAGGAGCGAUCGGGCUGAUGUUCCUGAUGCUUGGAUGUGCCCUUCCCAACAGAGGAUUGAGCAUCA` is reported as 0.133 ratio.
